Measured values pooled from the literature.
Lines come from different studies, so protocols differ. “And” joins repeats or separate records; there may be more than shown. ± marks the error that the study gave. Values after ≈ are worked out from the molar mass of the structure shown.
Sequence of UniProt P01556 (whole entry, looked up): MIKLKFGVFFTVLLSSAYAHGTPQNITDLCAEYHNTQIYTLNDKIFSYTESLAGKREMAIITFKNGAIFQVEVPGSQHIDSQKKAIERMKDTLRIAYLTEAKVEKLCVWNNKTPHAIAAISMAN
Sequence of UniProt P41143 (whole entry, looked up): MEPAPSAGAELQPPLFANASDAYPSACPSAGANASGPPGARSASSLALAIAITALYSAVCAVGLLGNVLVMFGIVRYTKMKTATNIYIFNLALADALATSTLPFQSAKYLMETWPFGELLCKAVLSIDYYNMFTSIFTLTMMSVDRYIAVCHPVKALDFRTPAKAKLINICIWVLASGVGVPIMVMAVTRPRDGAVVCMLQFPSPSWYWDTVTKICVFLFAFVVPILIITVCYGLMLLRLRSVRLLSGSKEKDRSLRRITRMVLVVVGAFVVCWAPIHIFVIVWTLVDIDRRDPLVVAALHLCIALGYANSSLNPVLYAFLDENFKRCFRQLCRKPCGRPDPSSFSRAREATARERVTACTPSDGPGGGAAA
Sequence of UniProt Q8JUX6 (whole entry, looked up): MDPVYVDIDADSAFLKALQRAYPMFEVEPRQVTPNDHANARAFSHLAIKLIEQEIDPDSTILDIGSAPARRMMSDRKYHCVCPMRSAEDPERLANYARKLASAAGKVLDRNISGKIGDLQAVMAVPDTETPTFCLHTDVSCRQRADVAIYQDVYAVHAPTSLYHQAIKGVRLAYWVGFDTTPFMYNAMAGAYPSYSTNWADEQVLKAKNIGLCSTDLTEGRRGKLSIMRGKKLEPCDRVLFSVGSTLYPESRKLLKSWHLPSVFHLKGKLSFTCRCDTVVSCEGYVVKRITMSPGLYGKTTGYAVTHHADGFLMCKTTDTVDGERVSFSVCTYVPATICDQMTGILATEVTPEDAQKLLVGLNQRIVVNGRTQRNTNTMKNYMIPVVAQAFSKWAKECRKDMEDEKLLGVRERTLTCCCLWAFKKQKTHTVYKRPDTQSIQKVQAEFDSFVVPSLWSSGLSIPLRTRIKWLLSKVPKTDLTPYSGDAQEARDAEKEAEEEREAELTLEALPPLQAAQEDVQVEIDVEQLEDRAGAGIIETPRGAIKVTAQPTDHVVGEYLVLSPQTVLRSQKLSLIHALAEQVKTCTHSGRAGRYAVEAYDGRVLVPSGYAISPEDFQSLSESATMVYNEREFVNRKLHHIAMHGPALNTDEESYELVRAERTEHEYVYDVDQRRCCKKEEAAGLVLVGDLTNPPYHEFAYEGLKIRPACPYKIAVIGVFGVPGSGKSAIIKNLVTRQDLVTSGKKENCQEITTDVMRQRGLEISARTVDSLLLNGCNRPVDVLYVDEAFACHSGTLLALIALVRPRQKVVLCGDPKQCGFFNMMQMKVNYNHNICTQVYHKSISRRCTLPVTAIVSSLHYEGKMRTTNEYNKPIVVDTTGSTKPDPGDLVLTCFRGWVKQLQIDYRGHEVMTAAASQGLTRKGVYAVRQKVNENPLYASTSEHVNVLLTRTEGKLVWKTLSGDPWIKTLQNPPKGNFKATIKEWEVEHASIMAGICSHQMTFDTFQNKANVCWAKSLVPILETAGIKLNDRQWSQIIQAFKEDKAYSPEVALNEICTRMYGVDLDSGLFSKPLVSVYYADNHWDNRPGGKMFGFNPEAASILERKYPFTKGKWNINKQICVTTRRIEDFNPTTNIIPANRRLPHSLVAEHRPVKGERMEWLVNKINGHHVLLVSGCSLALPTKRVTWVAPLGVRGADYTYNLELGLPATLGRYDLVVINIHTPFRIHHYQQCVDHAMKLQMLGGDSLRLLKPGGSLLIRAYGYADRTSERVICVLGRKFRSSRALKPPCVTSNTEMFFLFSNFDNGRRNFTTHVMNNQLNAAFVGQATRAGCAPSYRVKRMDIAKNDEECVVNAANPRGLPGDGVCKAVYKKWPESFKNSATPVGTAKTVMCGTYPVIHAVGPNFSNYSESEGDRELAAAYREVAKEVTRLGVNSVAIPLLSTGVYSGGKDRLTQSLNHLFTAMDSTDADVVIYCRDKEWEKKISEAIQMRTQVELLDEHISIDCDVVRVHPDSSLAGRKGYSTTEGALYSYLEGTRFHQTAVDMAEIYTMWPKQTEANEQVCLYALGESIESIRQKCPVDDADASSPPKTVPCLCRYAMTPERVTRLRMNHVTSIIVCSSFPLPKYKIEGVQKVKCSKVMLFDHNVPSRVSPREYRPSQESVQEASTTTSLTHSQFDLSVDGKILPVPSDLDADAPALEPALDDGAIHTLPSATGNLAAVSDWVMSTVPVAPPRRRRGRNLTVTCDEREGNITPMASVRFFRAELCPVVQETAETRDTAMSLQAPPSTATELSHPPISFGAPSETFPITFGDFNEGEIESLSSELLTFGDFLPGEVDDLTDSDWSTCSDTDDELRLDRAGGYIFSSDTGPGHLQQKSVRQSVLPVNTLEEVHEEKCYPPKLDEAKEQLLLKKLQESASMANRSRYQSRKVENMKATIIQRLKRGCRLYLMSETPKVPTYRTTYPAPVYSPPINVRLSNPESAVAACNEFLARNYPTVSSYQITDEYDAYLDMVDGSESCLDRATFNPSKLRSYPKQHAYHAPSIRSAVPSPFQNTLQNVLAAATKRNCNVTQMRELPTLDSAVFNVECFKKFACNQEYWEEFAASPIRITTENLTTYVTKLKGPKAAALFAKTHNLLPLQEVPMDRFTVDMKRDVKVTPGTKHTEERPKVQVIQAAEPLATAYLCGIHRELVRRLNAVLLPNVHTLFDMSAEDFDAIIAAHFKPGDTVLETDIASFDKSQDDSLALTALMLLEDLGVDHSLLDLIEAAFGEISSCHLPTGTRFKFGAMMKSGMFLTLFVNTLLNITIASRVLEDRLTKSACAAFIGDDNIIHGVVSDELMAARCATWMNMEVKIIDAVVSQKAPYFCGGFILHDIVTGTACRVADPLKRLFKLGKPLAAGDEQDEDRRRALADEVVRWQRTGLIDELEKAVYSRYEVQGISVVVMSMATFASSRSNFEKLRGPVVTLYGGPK
Sequence of UniProt Q9NY46 (whole entry, looked up): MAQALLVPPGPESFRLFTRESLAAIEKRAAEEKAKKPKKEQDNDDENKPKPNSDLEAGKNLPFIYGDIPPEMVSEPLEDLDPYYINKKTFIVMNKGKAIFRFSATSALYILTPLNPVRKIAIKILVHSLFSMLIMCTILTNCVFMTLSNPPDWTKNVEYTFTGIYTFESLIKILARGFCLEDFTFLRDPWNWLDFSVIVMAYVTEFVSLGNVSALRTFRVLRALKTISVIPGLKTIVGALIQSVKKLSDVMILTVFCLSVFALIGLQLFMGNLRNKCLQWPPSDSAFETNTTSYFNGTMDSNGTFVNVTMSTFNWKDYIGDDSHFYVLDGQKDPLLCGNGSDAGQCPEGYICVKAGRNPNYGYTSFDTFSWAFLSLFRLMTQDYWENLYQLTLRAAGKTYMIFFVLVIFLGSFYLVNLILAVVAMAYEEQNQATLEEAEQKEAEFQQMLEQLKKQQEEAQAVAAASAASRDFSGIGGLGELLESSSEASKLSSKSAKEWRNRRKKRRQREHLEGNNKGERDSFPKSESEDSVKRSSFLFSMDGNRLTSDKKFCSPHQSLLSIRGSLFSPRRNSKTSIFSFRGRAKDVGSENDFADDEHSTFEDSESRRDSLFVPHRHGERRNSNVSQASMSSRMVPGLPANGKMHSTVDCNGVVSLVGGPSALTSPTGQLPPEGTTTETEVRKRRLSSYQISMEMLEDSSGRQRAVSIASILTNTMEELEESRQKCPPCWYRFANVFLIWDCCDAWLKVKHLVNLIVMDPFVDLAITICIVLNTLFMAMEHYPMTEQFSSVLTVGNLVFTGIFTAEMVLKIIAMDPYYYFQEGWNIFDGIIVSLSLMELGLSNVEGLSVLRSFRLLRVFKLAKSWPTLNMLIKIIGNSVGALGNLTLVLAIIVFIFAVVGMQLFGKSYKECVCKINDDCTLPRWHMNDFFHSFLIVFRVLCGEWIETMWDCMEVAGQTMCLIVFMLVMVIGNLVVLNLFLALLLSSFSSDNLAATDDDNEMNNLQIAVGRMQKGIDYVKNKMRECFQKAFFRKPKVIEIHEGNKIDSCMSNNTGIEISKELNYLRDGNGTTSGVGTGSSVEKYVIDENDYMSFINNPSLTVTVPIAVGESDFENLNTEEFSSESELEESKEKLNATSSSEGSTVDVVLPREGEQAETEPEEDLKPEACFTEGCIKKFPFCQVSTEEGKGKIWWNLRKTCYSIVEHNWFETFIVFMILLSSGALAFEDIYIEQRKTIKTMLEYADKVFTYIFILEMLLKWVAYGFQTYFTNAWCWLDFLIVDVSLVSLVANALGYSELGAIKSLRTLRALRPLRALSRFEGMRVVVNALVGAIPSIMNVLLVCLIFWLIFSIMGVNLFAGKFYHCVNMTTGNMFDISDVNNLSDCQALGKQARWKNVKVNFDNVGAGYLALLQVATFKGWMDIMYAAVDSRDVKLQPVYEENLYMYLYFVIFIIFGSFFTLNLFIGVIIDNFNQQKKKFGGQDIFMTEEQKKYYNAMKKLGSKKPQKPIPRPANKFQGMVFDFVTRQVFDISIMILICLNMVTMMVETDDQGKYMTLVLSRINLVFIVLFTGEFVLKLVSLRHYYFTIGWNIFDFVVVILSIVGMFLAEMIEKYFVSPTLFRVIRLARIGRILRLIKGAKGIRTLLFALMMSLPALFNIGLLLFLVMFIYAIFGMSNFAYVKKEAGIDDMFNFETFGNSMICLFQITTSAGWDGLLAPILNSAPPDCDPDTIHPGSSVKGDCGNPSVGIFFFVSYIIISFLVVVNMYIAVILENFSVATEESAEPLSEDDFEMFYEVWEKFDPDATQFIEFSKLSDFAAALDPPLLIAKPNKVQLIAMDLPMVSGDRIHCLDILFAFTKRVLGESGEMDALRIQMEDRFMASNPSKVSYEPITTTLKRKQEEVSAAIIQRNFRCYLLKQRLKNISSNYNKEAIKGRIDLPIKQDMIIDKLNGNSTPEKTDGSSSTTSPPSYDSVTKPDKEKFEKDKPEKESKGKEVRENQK

SMILES | target or system | assay | test system | conditions | scale | endpoint | result
CS(=O)(=O)NCC1CCOC2(CCN(C(=O)C3(c4ccccc4)CCCC3)CC2)C1 (stereo not drawn) | Polyprotein P1234, nsP2 (Chikungunya virus, UniProt Q8JUX6) | nsP2 ATPase activity, inhibitor, ADP-Glo | – | high micromolar | – | nsP2 ATPase inhibition | active
CC[C@H](C)[C@H](NC(=O)[C@H](CC(C)C)NC(=O)[C@H](Cc1ccc(OP(=O)(O)O)cc1)NC(=O)[C@H](CCC(=O)O)NC(=O)[C@H](CC(=O)O)NC(=O)[C@H](C)NC(=O)[C@H](CC(=O)O)NC(=O)[C@@H](NC(=O)[C@H](CC(C)C)NC(=O)CCCC[C@@H]1SC[C@@H]2NC(=O)N[C@@H]21)C(C)C)C(=O)N1CCC[C@H]1C(=O)N[C@@H](CCC(N)=O)C(=O)N[C@@H](CCC(N)=O)C(=O)NCC(=O)O | Secreted effector protein (Yersinia pestis, UniProt O68720) | – | – | – | – | ΔG | -4.38 kcal/mol
CC(C)C[C@@H]1NC(=O)[C@H](CCCNC(=N)N)NC(=O)[C@@H]2CCCN2C(=O)[C@@H]2CSSC[C@H](NC(=O)CNC(=O)[C@@H]3CCCN3C(=O)[C@H](CCCCN)NC(=O)[C@H](CC(=O)O)NC(=O)[C@@H](NC(=O)CN)C(C)C)C(=O)N[C@@H](CCCNC(=N)N)C(=O)N[C@@H](Cc3ccc(O)cc3)C(=O)N[C@@H](CC(C)C)C(=O)N[C@@H](Cc3ccccc3)C(=O)NCC(=O)NCC(=O)N[C@H]3CSSC[C@H](NC(=O)CNC1=O)C(=O)N[C@@H](CCCCN)C(=O)NCC(=O)N[C@@H](CCCCN)C(=O)NCC(=O)N[C@@H](Cc1c[nH]cn1)C(=O)N[C@@H](CC(=O)O)C(=O)N[C@@H](Cc1ccc(O)cc1)C(=O)N[C@H](C(=O)N[C@@H](C)C(=O)N[C@@H](Cc1c[nH]c4ccccc14)C(=O)N[C@@H](CC(=O)O)C(=O)NCC(=O)N[C@H](C(=O)N[C@@H](Cc1ccccc1)C(=O)N[C@@H](CO)C(=O)N[C@@H](CC(=O)O)C(=O)O)[C@@H](C)O)CSSC[C@H](NC(=O)[C@H](CC(=O)O)NC(=O)[C@H](CC(=O)O)NC(=O)[C@H](CC(=O)O)NC(=O)[C@H](CO)NC(=O)[C@H](CCCCN)NC3=O)C(=O)N2 | SCN3A (Homo sapiens, UniProt Q9NY46) | sodium current, automated patch clamp | HEK293 | 1 µM, 50 ms depolarizing pulse | relative to: compound over control | inactivation time constant ratio | 4.45 ± 0.65
CC(C)C[C@H](NC(=O)OCc1ccccc1)C(=O)N[C@@H](C[C@@H]1CCNC1=O)C(O)S(=O)(=O)O (stereo partly drawn) | Replicase polyprotein 1ab, main protease (rep, Severe acute respiratory syndrome-related coronavirus, UniProt P0C6X7) | – | SARS coronavirus | – | – | k2 | 0.87 s⁻¹
CC(C)C[C@H](NC(=O)[C@H](CO)NC(=O)[C@H](CCCCN)NC(=O)[C@H](CC(C)C)NC(=O)CNC(=O)[C@H](CCCCN)NC(=O)[C@H](CCC(=O)O)NC(=O)CNC(=O)[C@H](CC(C)C)NC(=O)[C@H](CC(N)=O)NC(=O)[C@@H]1CCCN1C(=O)[C@H](CC(C)C)NC(=O)[C@H](Cc1ccccc1)NC(=O)CNC(=O)[C@H](NC(=O)[C@@H](N)Cc1ccc(O)cc1)[C@H](C)O)C(N)=O | OPRK1 (Homo sapiens, UniProt P41145) | ligand displacement, radioligand | – | pH 7.5, cell membranes | – | Ki | 15 nM
CCCCCCCCCCCCCCCC(=O)N[C@@H](CCC(=O)NCCOCCOCCC(=O)NCCOCCOCCC(=O)NCCCC[C@H](NC(=O)[C@H](CC(=O)O)NC(=O)[C@H](CC(C)C)NC(=O)[C@H](Cc1ccc(O)cc1)NC(=O)[C@H](CCCCN)NC(=O)[C@H](CO)NC(=O)[C@H](Cc1ccc(O)cc1)NC(=O)[C@H](CC(=O)O)NC(=O)[C@H](CO)NC(=O)[C@@H](NC(=O)[C@H](Cc1ccccc1)NC(=O)[C@@H](NC(=O)CNC(=O)[C@H](CCC(N)=O)NC(=O)[C@@H](CO)NC(=O)[C@@H](N)Cc1c[nH]cn1)[C@@H](C)O)[C@@H](C)O)C(=O)N[C@@H](CCCNC(=N)N)C(=O)N[C@@H](CCCNC(=N)N)C(=O)N[C@@H](C)C(=O)N[C@@H](CCC(N)=O)C(=O)N[C@@H](CC(=O)O)C(=O)N[C@@H](Cc1ccccc1)C(=O)N[C@H](C(=O)N[C@@H](CCC(N)=O)C(=O)N[C@@H](Cc1c[nH]c2ccccc12)C(=O)N[C@@H](CC(C)C)C(=O)N[C@@H](CC(C)C)C(=O)N[C@@H](CC(N)=O)C(=O)N[C@H](C(=O)NCC(=O)NCC(=O)N1CCC[C@H]1C(=O)N[C@@H](CO)C(=O)N[C@@H](CO)C(=O)NCC(=O)N[C@@H](C)C(=O)N1CCC[C@H]1C(=O)N1CCC[C@H]1C(=O)N1CCC[C@H]1C(=O)N[C@@H](CO)C(N)=O)[C@@H](C)O)C(C)C)C(=O)O | – | item: AST | Sprague-Dawley rat, female | subcutaneous, 20 µg/kg once daily, 14 days | – | serum enzyme activity | 78.5 ± 10.3 U/L
COc1ccc(/C=N/NC(=O)C(C)(C)Oc2ccc(Cl)cc2)c(C(=O)O)c1OC | uncharacterized protein (Candidatus Liberibacter solanacearum, UniProt A0A094YYW1) | – | – | – | – | kon | 106 M⁻¹ s⁻¹
CNC(C)C1C(O)CC2(C)C3CCC4C(C)(C)C(NC)CCC45CC35CCC12C (stereo not drawn) | Spike glycoprotein (Severe acute respiratory syndrome coronavirus 2, UniProt P0DTC2) | binding, BLI | – | – | – | kon | 776 M⁻¹ s⁻¹
CC[C@H](C)[C@H](NC(=O)[C@H](CCCN)NC(=O)[C@H](CC(=O)O)NC(=O)[C@H](CC(C)C)NC(=O)C(C)(CC(C)C)NC(=O)[C@@H](NC(=O)[C@H](CO)NC(=O)[C@H](Cc1ccc(O)cc1)NC(=O)[C@H](CC(=O)O)NC(=O)[C@H](CO)NC(=O)[C@@H](NC(=O)[C@H](Cc1ccccc1)NC(=O)[C@@H](NC(=O)CNC(=O)[C@H](CCC(=O)O)NC(=O)C(C)(C)NC(=O)[C@@H](N)Cc1ccc(O)cc1)[C@@H](C)O)[C@@H](C)CC)[C@@H](C)CC)C(=O)N[C@@H](Cc1c[nH]cn1)C(=O)N[C@@H](CCC(N)=O)C(=O)NC(C)(C)C(=O)N[C@@H](CC(=O)O)C(=O)N[C@@H](Cc1ccccc1)C(=O)N[C@H](C(=O)N[C@@H](CCC(=O)O)C(=O)N[C@@H](Cc1ccc(O)cc1)C(=O)N[C@@H](CCCCNC(=O)COCCOCCNC(=O)COCCOCCNC(=O)CC[C@H](NC(=O)CCCCCCCCCCCCCCCCCCC(=O)O)C(=O)O)C(=O)N[C@@H](CC(C)C)C(=O)N[C@@H](CCC(=O)O)C(=O)NCC(=O)NCC(=O)N1CCC[C@H]1C(=O)N[C@@H](CO)C(=O)N[C@@H](CO)C(=O)NCC(=O)N[C@@H](C)C(=O)N1CCC[C@H]1C(=O)N1CCC[C@H]1C(=O)N1CCC[C@H]1C(=O)N[C@@H](CO)C(N)=O)C(C)C (stereo partly drawn) | – | – | human, type 2 diabetes | subcutaneous, 25 mg single dose, geometric mean | – | CL/F | 0.347 mL/min
CC(C)C[C@H](NC(=O)[C@H](CO)NC(=O)[C@H](CCCCN)NC(=O)[C@H](CC(C)C)NC(=O)C(C)(C)NC(=O)[C@H](CCCCN)NC(=O)[C@H](CCC(=O)O)NC(=O)[C@H](C)NC(=O)[C@H](CC(C)C)NC(=O)[C@H](CC(N)=O)NC(=O)[C@@H]1CCCN1C(=O)[C@H](CC(C)C)NC(=O)[C@H](Cc1ccccc1)NC(=O)CNC(=O)[C@H](NC(=O)[C@@H](N)Cc1ccc(O)cc1)[C@H](C)O)C(N)=O | OPRD1 (Homo sapiens, UniProt P41143) | ligand displacement, radioligand | – | pH 7.5, cell membranes | – | Ki | 15 nM
CC(=O)NCCOCCOCCOCCn1cc(CNC(=O)c2cc(O[C@H]3O[C@H](CO)[C@H](O)[C@H](O)[C@H]3O)cc([N+](=O)[O-])c2)nn1 | ctxB (Vibrio cholerae, UniProt P01556) | binding | – | – | – | log IC50 | -2.39
O=C1SCCC1NC(C(=O)NCc1ccccc1)C1CC1 (stereo not drawn) | TST (Homo sapiens, UniProt Q16762) | activator | – | 34.2 µM, versus potassium cyanide, together with: sodium thiosulfate 60 mM | – | Vmax | 0.23 ± 0.01 mM/s
CC(=O)N[C@@H](Cc1cn([C@@H]2O[C@H](CO)[C@H](O)[C@H](O)[C@H]2O)nn1)C(=O)NCC(=O)N[C@@H](C)C(=O)N[C@@H](CCCCN)C(=O)N[C@@H](C)C(=O)N[C@@H](CCCCN)C(=O)N1CCC[C@H]1C(=O)N[C@@H](CCCCN)C(=O)NCC(=O)N[C@@H](C)C(=O)N[C@@H](CCCCN)C(=O)N[C@@H](C)C(=O)N[C@@H](CCCCN)C(=O)N1CCC[C@H]1C(=O)N[C@@H](CCCCN)C(=O)NCC(=O)N[C@@H](C)C(=O)N[C@@H](CCCCN)C(=O)N[C@@H](C)C(=O)N[C@@H](CCCCN)C(=O)N1CCC[C@H]1C(=O)N[C@@H](CCCCN)C(=O)NCC(=O)N[C@@H](C)C(=O)N[C@@H](CCCCN)C(=O)N[C@@H](C)C(=O)N[C@@H](CCCCN)C(=O)N1CCC[C@H]1C(=O)N[C@@H](CCCCN)C(=O)NCC(=O)N[C@@H](C)C(=O)N[C@@H](CCCCN)C(=O)N[C@@H](C)C(=O)N[C@@H](CCCCN)C(=O)N1CCC[C@H]1C(=O)N[C@@H](Cc1cn([C@@H]2O[C@H](CO)[C@H](O)[C@H](O)[C@H]2O)nn1)C(=O)NCC(=O)NCC(=O)NCC(=O)NCC(N)=O | ctxB, pentamer (Vibrio cholerae, UniProt P01556) | – | – | concentration not given | relative to: galactose | inhibition potency | 15 fold
Cc1ccc(N)cc1C(=O)NC(C)(C)c1ccc2c3c(cccc13)CC2 | Replicase polyprotein 1a, papain-like protease (Severe acute respiratory syndrome coronavirus 2, UniProt P0DTC1) | binding | – | 10 µM | – | thermal shift (ΔTm) | 2.2 °C and 1.2 °C and 2 °C
CC[C@H](C)[C@H](NC(=O)[C@H](CCCCN)NC(=O)[C@H](CCCCN)NC(=O)[C@H](CC(C)C)NC(=O)[C@H](Cc1c[nH]c2ccccc12)NC(=O)CN)C(=O)NCC(=O)N[C@@H](CCCCN)C(=O)N[C@@H](CCCCN)C(=O)N[C@H](C(=O)N[C@@H](CCC(=O)O)C(=O)N[C@@H](CCCNC(=N)N)C(=O)N[C@H](C(=O)NCC(=O)N[C@@H](CCC(N)=O)C(=O)N[C@@H](Cc1c[nH]cn1)C(=O)N[C@H](C(=O)N[C@@H](CCCNC(=N)N)C(=O)N[C@@H](CC(=O)O)C(=O)N[C@@H](C)C(=O)N[C@H](C(=O)N[C@H](C(=O)N[C@@H](CCC(N)=O)C(=O)N[C@H](C(=O)N[C@H](C(=O)NCC(=O)N[C@H](C(=O)N[C@@H](C)C(=O)N[C@@H](CCC(N)=O)C(=O)N[C@@H](CCC(N)=O)C(=O)N[C@@H](C)C(=O)N[C@@H](C)C(=O)N[C@@H](CC(N)=O)C(=O)N[C@H](C(=O)N[C@@H](C)C(=O)N[C@@H](C)C(=O)N[C@H](C(=O)N[C@@H](CC(C)C)C(=O)N[C@@H](CCCCN)C(N)=O)[C@@H](C)O)C(C)C)C(C)C)[C@@H](C)CC)[C@@H](C)O)[C@@H](C)CC)[C@@H](C)O)[C@@H](C)O)C(C)C)[C@@H](C)CC | Escherichia coli | – | isolate RKI 6 A-6, CAMHB | – | – | MIC | 4 mg/L (≈ 0.952 µM)
